Results pooled from the literature.
Each numbered part is a random draw from the data of one study; scales do not carry over between parts. Changes are numbered by the printed parent chain.

Series 1 — technique: protein binding microarray; molecule type: double-stranded DNA, one strand shown; sample: in vitro; tested at: not given; baseline: not given; reading: higher = stronger binding
Target: Histone acetyltransferase KAT6A, winged helix 1, GST fusion (KAT6A, Homo sapiens, UniProt Q92794, residues 1-85)
Setting: 8-mer, flanks averaged, mean of 2 arrays, mostly near background
Residues (chain): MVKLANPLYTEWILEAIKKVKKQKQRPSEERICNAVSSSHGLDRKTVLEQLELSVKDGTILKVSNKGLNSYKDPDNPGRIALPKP
Oligonucleotide	E-score
ATCCTTTG	-0.148
CGGCACTA	0.276
ATTAGATA	-0.142
AGGCGAAG	-0.119
AAAATCTA	-0.139
AGTGGTTA	-0.196
CCTATCGC	0.175
ACGTTCGG	0.0663
ACCGGTAC	0.253

Series 2 — target: CCNB3, cyclin fold, Cln2 fusion (human); technique: yeast growth competition, sequencing; sample: yeast; setting: weak parent motif; baseline: not given; reading: higher = stronger binding
Starting sequence: PKN2 docking peptide (human); VSAVQKLDFSDTM
Change	normalised enrichment score
D11L	0.696
D8H	0.0191
L7C	0.149
S2L	0.559
S2A	0.391
V1Y	0.417
V1G	0.206
D11H	0.302
V4I	0.323
T12F	0.374

Series 3 — target: BATF, bZIP domain (human); technique: DHFR protein complementation; sample: yeast; baseline: wild-type JUN-FOS pair; reading: higher = stronger binding
Setting: single substitutions, most at no-binding floor
Starting sequence: JUN, bZIP domain (human); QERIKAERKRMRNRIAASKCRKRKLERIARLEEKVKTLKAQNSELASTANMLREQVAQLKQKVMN; partner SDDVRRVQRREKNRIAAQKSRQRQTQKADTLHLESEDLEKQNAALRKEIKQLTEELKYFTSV
Change	binding fitness
A40V	0.00528 natural log
N42A	-0.41 natural log
T37V	0.00864 natural log
N42L	-0.671 natural log
Q55R	0.0411 natural log
L45C	-1.14 natural log
E32P	-0.505 natural log
R53G	-0.492 natural log
A46T	0.0983 natural log
S47G	0.013 natural log
E54K	-0.0664 natural log

Other studies, line by line
Molecule	target	assay	system	conditions	how to read	endpoint	value
PhoQ, residues 284 288 289 292 302 303 SSCCRF	PhoP, residues 12 14 15 18 19 VQGLL (Escherichia coli, UniProt P23836)	Sort-seq, refers to: YFP reporter	E. coli	PhoQ-PhoP variant library, with: 10 µM Mg2+	baseline: high Mg2+ state, higher = stronger signaling	fold induction	16.3
